Assay results from different studies.
Each line is one published result; not all experiments were run side by side. ± marks the error that the study gave.

Structure (SMILES) | method | matrix | concentration | time | temperature | notes | measured concentration [ng/mL]
COC(=O)C(c1ccccc1Cl)N1CCC2SC(=O)C=C2C1 (stereo not drawn) | LC-MS/MS | human plasma | 2 ng/mL spiked | 45 days | -80 °C |  | 2 ± 0.1
COc1ccnc(C[S+]([O-])c2nc3cc(-n4cccc4)ccc3[nH]2)c1C (stereo not drawn) |  | rat plasma | 250 ng/mL spiked |  |  | three freeze-thaw cycles | 257
COC(=O)C(c1ccccc1Cl)N1CCC(SCC(=O)c2cccc(OC)c2)C(=CC(=O)O)C1 (stereo not drawn) | LC-MS/MS | extract in autosampler | 2 ng/mL | 24 h | 4 °C |  | 2.1 ± 0.2
Cc1[nH]c(/C=C2\C(=O)Nc3ccc(F)cc32)c(C)c1NC(=O)CCN1CCN(C)CC1 |  | dog plasma | 40 ng/mL nominal |  |  | three freeze-thaw cycles at -20 °C | 40.8
COc1ccc(-c2cc(=O)c3c(O)cc(O[C@@H]4O[C@H](CO[C@@H]5O[C@@H](C)[C@H](O)[C@@H](O)[C@H]5O)[C@@H](O)[C@H](O)[C@H]4O)cc3o2)cc1 | short-term stability | rat plasma |  | 8 h | room temperature | low QC level | 7.07 ± 1.76
COc1ccc([C@@H]2CC(=O)c3c(O)cc(O[C@@H]4O[C@H](CO[C@@H]5O[C@@H](C)[C@H](O)[C@@H](O)[C@H]5O)[C@@H](O)[C@H](O)[C@H]4O)cc3O2)cc1O |  | rat plasma | 31.25 ng/mL | 7 days | -80 °C | long-term storage | 30 ± 0.69
Oc1ccc2ccccc2c1/N=N/c1ccccc1 |  | rat whole blood extract | 0.2 µg/L | 30 days | -20 °C | long-term storage | 0.217
CNC(=O)N[C@]1(C)CCC[C@@]2(C)C3CC[C@@]4(C)C[C@]3(CCC21)CC4=O (single isomer, unassigned) |  | rat plasma | 400 ng/mL | 101 d | -80 °C | long-term storage stability | 402 ± 19
C[N+](C)(C)CC(CC(=O)[O-])OC(=O)CCC(=O)Nc1ccn([C@@H]2O[C@H](CO)[C@@H](O)C2(F)F)c(=O)n1 (stereo partly drawn) |  | THU-treated rat plasma | 125.00 ng/mL | 1 h | 20 °C | bench-top stability, mid QC | 114 ± 1.3

Repeated from above:
Structure (SMILES) | method | matrix | concentration | time | temperature | notes | measured concentration [ng/mL]
COc1ccc([C@@H]2CC(=O)c3c(O)cc(O[C@@H]4O[C@H](CO[C@@H]5O[C@@H](C)[C@H](O)[C@@H](O)[C@H]5O)[C@@H](O)[C@H](O)[C@H]4O)cc3O2)cc1O |  | rat plasma | 31.25 ng/mL | 7 days | -80 °C | long-term storage | 30 ± 0.69
